Experimental data from different studies.
Parts stem from different laboratories: compare values within a part only.

Sample 1
Target: Phosphate system positive regulatory protein PHO4, full length, GST-tagged (PHO4, Saccharomyces cerevisiae, UniProt P07270, residues 1-312)
Technique: competition protein-binding microarray
Molecule type: double-stranded DNA, one strand shown
Matrix: in vitro
Concentration: 2 µM
Notes: whole 60-bp probe, lowest competitor level
Added: Cbf1 competitor, 0.05 µM
Direction: higher = stronger binding
Shared flanks, not repeated: … GTCTTGATTCGCTTGACGCTGCTG
Residues (chain): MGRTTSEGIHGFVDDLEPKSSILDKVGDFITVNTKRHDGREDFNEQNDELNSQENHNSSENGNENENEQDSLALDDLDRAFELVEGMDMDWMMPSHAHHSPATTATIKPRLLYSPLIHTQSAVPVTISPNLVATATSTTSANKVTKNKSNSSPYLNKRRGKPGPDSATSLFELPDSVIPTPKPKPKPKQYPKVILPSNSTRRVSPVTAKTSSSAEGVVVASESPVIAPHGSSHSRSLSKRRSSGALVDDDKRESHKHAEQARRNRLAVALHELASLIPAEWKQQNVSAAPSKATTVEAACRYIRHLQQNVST
Oligonucleotide | fluorescence intensity
AAATTACTAAGTTGTTGCGTGGGTGACGCCGTATGA | 6600 a.u.
AGATGAAGCTCTCACCACGCACCATTAAATGTAAAC | 7160 a.u.
AAGACAGATGGCCGACACGCACTTTCACAGTTTCGC | 6600 a.u.
GTAGCTCTGTCAAACCCCGTGGAACCGCAAACTCAT | 8440 a.u.
AAATTACTAAGTTGTCAAGTGGGTGACGCCGTATGA | 4010 a.u.
CTACATCGAGGTAAACGCGTGTCGGGGTGCAAGCAT | 9970 a.u.
CTAACGAAGGTTTGGGATGTGGGTGACAAGCCAAGT | 4480 a.u.
TAATGAACTTTGTCCCACGTGCGGACATCATTTACT | 19600 a.u.
AAAGCGGTAATTTGGGTTGTGGGTGCAGATATCTAT | 4860 a.u.
TGTAGCGCCAACCAACACGTGCAAATTTCCATCATC | 16100 a.u.
ATAACCGCGCAATACCGCGTGCTGTATCGGCGTCCA | 11700 a.u.
TGCGCAACAACTTGCCCTGTGGGTGTATGTCTAGAA | 5450 a.u.
CCGCGAGTTCGTAGGCACGTTAGTTGGTTTCGACGA | 8230 a.u.
GGCAAATATAACGGCCACGTGCCGAGGGGTTTCTCT | 15000 a.u.
GTCTTGTCTCATTGTCACACGACTTTCCCCACTTCA | 6000 a.u.
AAACCTCTCTGCTTCTACCAAAGTCCTAAAATCTCC | 3100 a.u.

Sample 2
Target: RNA binding protein fox-1 homolog 2, RRM domain, GST-SBP tag (RBFOX2, Homo sapiens, UniProt O43251-10, residues 100-194)
Technique: RNA Bind-n-Seq
Molecule type: RNA
Matrix: in vitro
Concentration: 365 nM
Notes: natural RNA segment, single round, ends assumed
Baseline: no-protein control
Direction: higher = stronger binding
Shared flanks, not repeated: GGGAGUUCUACAGUCCGACGAUC … UGGAAUUCUCGGGUGCCAA
Target sequence (chain): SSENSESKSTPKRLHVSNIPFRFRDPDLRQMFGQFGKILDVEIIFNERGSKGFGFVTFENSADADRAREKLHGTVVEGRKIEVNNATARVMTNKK
Oligonucleotide | RBNS enrichment (R)
AGGACACUGUCAGUAGGGAACGGAAUGAAAACUCAAAUGUUGCCUGCAGUUGAGCAAGGAAGCUGAGGUUGGAACCAUUAAACUAUUUCUUCCCAUUUUCAAAAGGACCU | 0.49
CUAAUAUUAGUAUUCAUUAUGCAUUUCUAAAUAACAGUCAUUCUGUUUGUCUUUUUAAUGCUUUAUUCAUUAUUGACAUUUGUAGUUGAGGGAUCCGGGGGUUCAAUUUA | 0.948
CAGUGGAGCGAGCGGACAUUCUGAUCGCUGCAUUUCUUUAGAUCUCGGAGCUAAGUGUAUAUAUGAGUAGUUUGCCAAUGGAUAACACAGUGUAAACAGUAGACACCCAG | 0.689
AAGAGGCUUUUUGUUUUGUUUUUGUUUUUGUUUUUAGAAGCAGUUCGUAGUAUUUGAAAGAAUAAAUCAAGUUUUGAUUAUGCUAUAGGUUGAUUUUUGUGUUGAUCCAA | 2.35
CGUUAACUGCUGCAGCUCUCUUUGGGCCACCCUAGUGUUUGUGAUUCAUGCUUGAAGUAACCUUGCCGACAGUUGUGUGGCACAGACUCCCAGUACCAGCAAGGGGGCCG | 0.417
UAUUUAGCACUUGAAAAUCAACAAAUCCAGAAUUUAAAAAAAUGCCACAGACUUUUCAAAGCCCAACUCUACUUUUUUGAGAAUUUGUCCGUACCUACUAAUAUGCCUUA | 0.787
GCAGUGCAGAUCGGAAUUCCCAUAUGUCUGAGUGGGUAUUUUUAGACAGAAUCCACUCCUAAGUUAGGACAUGGAGCCCAGAUACUAUGAUACCAAAUUCAGGGGUGUCA | 0.254
UUGUCUUAGACACUGUGGUUGCAAAACCCACGGAAAGCCUCAUUUGUGUGGAAAGUCAGAGGAAAAAUGAUCCAGUGGACACUUGGGGAUUAUCUGUCAUUCAAGAUCCU | 0.43

Sample 3
Target: Histone acetyltransferase KAT6A, winged helix 2, GST fusion (KAT6A, Homo sapiens, UniProt Q92794, residues 85-181)
Technique: protein binding microarray
Molecule type: double-stranded DNA, one strand shown
Matrix: in vitro
Concentration: not given
Notes: 8-mer, flanks averaged, mean of 2 arrays, mostly near background
Baseline: not given
Direction: higher = stronger binding
Construct (chain): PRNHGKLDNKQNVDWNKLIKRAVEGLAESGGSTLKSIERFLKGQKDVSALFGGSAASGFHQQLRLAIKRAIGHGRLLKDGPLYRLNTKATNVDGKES
Oligonucleotide | E-score
CACGTATC | -0.247
GAGATGCC | -0.134
TCCATACA | -0.114
CTAATTAC | 0.0573
ACCGTCTG | -0.125
CACAGTTA | -0.0452
GATGCTGA | -0.0107
GCTCCGGA | 0.00096
TACGCACA | 0.00197
ATGTCACC | -0.0617
AATCACTC | -0.0522
CGGAGGCA | 0.107
CTGATCTC | 0.106
ATTCTCCC | 0.0513
ATGGAGGG | 0.0532
ATCGGAGC | 0.039
ACTGGTTG | 0.0449
ATATACAA | 0.0673
TAACGAAA | 0.0978
GTCTTTTA | -0.0356
GTAAGTAA | -0.394
ATAACAGA | -0.114

Sample 4
Target: Sal-like protein 4, full length isoform A (SALL4, Homo sapiens, UniProt Q9UJQ4, residues 1-1053)
Sequence of UniProt Q9UJQ4 (whole entry, looked up): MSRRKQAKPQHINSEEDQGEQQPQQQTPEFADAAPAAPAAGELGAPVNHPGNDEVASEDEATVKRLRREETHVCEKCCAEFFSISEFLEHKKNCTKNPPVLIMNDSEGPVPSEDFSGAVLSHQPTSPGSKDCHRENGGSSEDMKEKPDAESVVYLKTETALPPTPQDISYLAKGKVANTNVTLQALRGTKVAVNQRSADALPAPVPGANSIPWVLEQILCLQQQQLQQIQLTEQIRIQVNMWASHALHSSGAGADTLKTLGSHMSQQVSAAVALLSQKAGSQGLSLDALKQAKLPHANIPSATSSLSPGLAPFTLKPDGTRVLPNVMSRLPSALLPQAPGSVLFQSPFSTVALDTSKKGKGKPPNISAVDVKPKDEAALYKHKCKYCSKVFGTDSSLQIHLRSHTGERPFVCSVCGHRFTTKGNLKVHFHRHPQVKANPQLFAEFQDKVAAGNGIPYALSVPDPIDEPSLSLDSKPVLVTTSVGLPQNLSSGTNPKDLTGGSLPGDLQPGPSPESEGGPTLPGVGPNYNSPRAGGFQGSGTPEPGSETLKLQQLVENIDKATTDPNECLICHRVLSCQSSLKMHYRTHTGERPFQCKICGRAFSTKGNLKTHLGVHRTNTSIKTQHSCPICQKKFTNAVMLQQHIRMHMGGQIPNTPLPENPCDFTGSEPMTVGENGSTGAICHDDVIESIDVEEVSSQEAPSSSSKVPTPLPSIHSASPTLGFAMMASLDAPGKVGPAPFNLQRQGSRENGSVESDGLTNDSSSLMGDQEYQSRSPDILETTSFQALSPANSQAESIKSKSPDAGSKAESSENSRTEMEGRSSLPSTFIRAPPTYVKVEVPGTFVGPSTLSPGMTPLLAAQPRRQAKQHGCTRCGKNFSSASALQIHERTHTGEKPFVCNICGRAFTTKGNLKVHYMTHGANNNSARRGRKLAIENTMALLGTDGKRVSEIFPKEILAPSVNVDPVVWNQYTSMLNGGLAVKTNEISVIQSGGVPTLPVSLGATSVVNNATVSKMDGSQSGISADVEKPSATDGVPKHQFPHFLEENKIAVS
Technique: universal PBM
Molecule type: double-stranded DNA, one strand shown
Matrix: in vitro
Concentration: 600 nM
Notes: 8-mer, flanks averaged, mean of replicates
Direction: higher = stronger binding
Oligonucleotide | E-score
CCCCGTTC | -0.226
ACTAGTAC | 0.0257
AATGGTGC | -0.0707
CTCTGGCA | -0.2
GATAGTGC | -0.133
ACTGACGG | -0.168
CGGGAGTC | -0.2
CATCCCAA | 0.157
CGAAAGTC | -0.0386
AGTGTCCA | -0.00107
CTTCAGCA | -0.106
ACCATTTG | 0.111
GACCTCGC | -0.305
CCTTCGGA | -0.27
ACTAATGA | 0.274
CCTATGTA | 0.168
TAACTAAA | 0.207
GTCAATAA | 0.312
CCACCGAA | -0.131
AGGCGGCA | -0.234
TAATGGCA | 0.11
AGTGAGTG | -0.0885
CTAGTCCC | -0.181
CCACGTAA | -0.0382
GCGGCGGA | -0.348

Excerpt of the above (sample 4):
Oligonucleotide | E-score
AGGCGGCA | -0.234
CTCTGGCA | -0.2
CCTTCGGA | -0.27
CTTCAGCA | -0.106
ACCATTTG | 0.111
ACTAGTAC | 0.0257
